# Results collected from several papers.
# Several values in a cell are separate wells, animals, samples, runs or records. ± marks the error that the study gave.
# SET: Protein SET (SET, Homo sapiens, UniProt Q01105)
# AURKA: Aurora kinase A (AURKA, Homo sapiens, UniProt O14965)
# SMARCA2: SWI/SNF-related matrix-associated actin-dependent regulator of chromatin subfamily A member 2 (SMARCA2, Homo sapiens, UniProt P51531)
# Aryl hydrocarbon receptor: Aryl hydrocarbon receptor (Danio rerio, UniProt Q9YGV3)
Structure (SMILES),target,test,test system,conditions,scale,measurement,result
Cn1c2c(c3ccc(Cl)c(Cl)c31)C(C#N)C1(CCOCC1)NC2=O (centres unmarked),"Ribosomal protein S6 kinase alpha-2 (RPS6KA2, Homo sapiens, UniProt Q15349)",thermal shift,,"10 µM, 2 µM protein",higher = stronger binding,ΔTm,0.2 °C
CC1=C[C@H](O)CC(C)(C)[C@H]1/C=C/C(C)=C/C=C/C(C)=C/C=C/C=C(C)/C=C/C=C(C)/C=C/C1=C(C)C[C@@H](O)CC1(C)C,"Beta-lactoglobulin (LGB, Bos taurus, UniProt P02754)",fluorescence quenching,,"concentration not given, 303 K",,number of binding sites,1.33
c1coc(-c2n[nH]cc2-c2ccnc3ccccc23)c1,"Serine/threonine-protein kinase STE7 homolog (HST7, Candida albicans, UniProt Q5A6T5)","kinase binding, MIB/MS competition",Candida albicans lysate,10 µM,"baseline: DMSO, negative = stronger binding",log2 fold change,0.04
CCCCCCCCCCCCC/C=C/[C@@H](O)[C@H](CO)NC(=O)CCCCCCCCCCCCCCCCCCC,SET,"lipid binding, GFP pull-down LC-MS/MS",A549 overexpressing GFP-tagged protein,ER-targeted construct,baseline: eluate plus flow-through,lipid fraction bound,14%
O=C(COP(=O)(O)O)[C@@H](O)[C@H](O)[C@H](O)COP(=O)(O)O,"Ribose-phosphate pyrophosphokinase 1 (PRPS1, Homo sapiens, UniProt P60891)",thermal proteome profiling,HepG2 cell lysate,"concentration not given, 57 over 37 °C",baseline: compound over control,thermal stability ratio,2.78 and 1.65 and 2.95
Nc1ncnc2c1ncn2[C@@H]1O[C@H](COP(=O)(O)OP(=O)(O)O)[C@@H](O)[C@H]1O,"GUK1 (Homo sapiens, UniProt Q16774)",ITC,,molar ratio 0.297,,ΔH,-2.96 kcal/mol
N#Cc1ccc(C[C@@H](Nc2ncc(-c3ccc(F)cc3)o2)C(=O)N2CCc3ccccc32)cc1,"N-formyl peptide receptor 2 (FPR2, Homo sapiens, UniProt P25090)",cell-based,,concentration not given,,activity,inactive
[O-][S+]1CCCCS1 (centres unmarked),"Superoxide dismutase [Cu-Zn] (SOD1, Homo sapiens, UniProt P00441, G94A)",intact protein LC-MS,"SOD1 G93A transgenic mice, whole blood","intravenous, 10 mg/kg, 12 h, mean of two mice",,target engagement,41.4%
CCCCCCCCCCCCC/C=C/[C@@H](O)[C@H](CO)NC(=O)CCCCCCCCCCCCCCC,SET,"lipid binding, GFP pull-down LC-MS/MS",A549 overexpressing GFP-tagged protein,"ER-targeted construct, unit not given",baseline: vector-transfected cells,bound endogenous lipid,7.2
O=C(NCCCN1CCOCC1)c1ccc(Nc2nccc(-c3cc4ccccc4s3)n2)cc1,"Protein kinase 6 (Plasmodium falciparum, UniProt Q8IDW1)","binding, KinaseSeeker split luciferase",,,,ligand efficiency,0.28
CN(C)c1nccc(-c2cnn3ncccc23)n1,"Tyrosine-protein kinase ABL1 (ABL1, Homo sapiens, UniProt P00519, F317I)",KINOMEscan,,1 µM,baseline: control,remaining binding,100% and 57%
CCCCCCCCC(=O)c1cc(O)c(O)c(O)c1,"Oxysterols receptor LXR-alpha (NR1H3, Homo sapiens, UniProt Q13133)","reporter gene, Gal4 hybrid reporter",,10 µM,baseline: vehicle,activation,2.4 fold
Nc1nc(=O)n([C@H]2C[C@H](O)[C@@H](CO)O2)cc1-c1cc2ccccc2o1,"Cytidine deaminase (CDA, Homo sapiens, UniProt P32320)","deamination, substrate, real-time fluorescence",,"pH 7.4, 37 °C",,kcat,2.5 to 3.3 s⁻¹
COc1cc(Nc2ncc3c(n2)-c2ccc(Cl)cc2C(c2c(F)cccc2OC)=NC3)ccc1C(=O)O,TBK1,kinase activity,,1 µM,,remaining activity,39%
COc1cccc(C(=O)C#Cc2ccc(F)c(F)c2)c1,"HTH-type quorum-sensing regulator RhlR (rhlR, Pseudomonas aeruginosa, UniProt P54292)",receptor binding,,"concentration not given, 1.5 h, added: BHL at 1:1 ratio",baseline: control,binding,55%
O=C(CCCc1ccccc1)C(=O)NCCc1ccc(Oc2ccc(C(F)(F)F)cn2)cc1,"Carboxylesterase 1D (Mus musculus, UniProt Q8VCT4)","inhibitor, measured: CES1D","mouse, WAT cytosol proteome",10 µM,"baseline: DMSO, lower = stronger inhibition",probe-enriched protein abundance,242000 a.u.
Cc1ccc2ccc3ccccc3c2c1,"Aryl hydrocarbon receptor (AHR, Homo sapiens, UniProt P35869)","reporter gene, agonist, yeast LacZ reporter",Saccharomyces cerevisiae,,,maximum response,174 LacZ units
O=C(COP(=O)(O)O)[C@@H](O)[C@H](O)[C@H](O)COP(=O)(O)O,"Pyruvate kinase PKM (PKM, Homo sapiens, UniProt P14618)","pyruvate kinase activity, activator",RKO cell lysate,added: AIM,,concentration reversing inhibition completely,394 ± 122 nM
COc1ccc(F)cc1C(=O)NCc1ccc(-c2nn([C@@H](C)C(F)(F)F)c(N)c2C(N)=O)cc1,AURKA,,,"1000 nM, added: ATP at Km",,remaining activity,60.5 ± 3.5%
CCCCCCCCCCCCC/C=C/[C@@H](O)[C@H](CO)NC(=O)CCCCCCCCCCCCCCCCC,SET,"lipid binding, GFP pull-down LC-MS/MS",A549 overexpressing GFP-tagged protein,,baseline: eluate plus flow-through,lipid fraction bound,65.4%
CCCCC[S+]([O-])c1n[nH]c(N)n1 (centres unmarked),"DDB1- and CUL4-associated factor 7 (Homo sapiens, UniProt P61962)","binding, affinity selection mass spectrometry",,,baseline: other proteins in batch,log fold enrichment,-0.0478
Nc1ncnc2c1ncn2[C@@H]1O[C@H](COP(=O)(O)CP(=O)(O)OP(=O)(O)O)[C@@H](O)[C@H]1O,"P2X purinoceptor 1 (P2RX1, Homo sapiens, UniProt P51575, F188L)",calcium influx,,3.16 µM,baseline: ionomycin response,calcium influx,86.7% and 95.9% and 87.8%
Cc1ncsc1-c1ccc(CNC(=O)[C@@H]2C[C@@H](O)CN2C(=O)[C@@H](NC(=O)C2(F)CC2)C(C)(C)C)c(OCCOc2ccc(CN3CCN(c4cc(-c5ccccc5O)nnc4N)CC3)cc2)c1,SMARCA2,"ternary complex binding, AlphaLISA competition",HEK293 cell lysate,added: full-length VCB,baseline: binary IC50 over ternary IC50,cooperativity factor alpha,0.9
F[C@@H]1CCN(c2nccc(-c3cnn4ncccc34)n2)C1,"Tyrosine-protein kinase ABL1 (ABL1, Homo sapiens, UniProt P00519, H396P)",KINOMEscan,,1 µM,,remaining binding,72% and 100%
NCCCS(=O)(=O)O,"Sodium- and chloride-dependent taurine transporter (SLC6A6, Homo sapiens, UniProt P31641, Y138A)","binding, microscale thermophoresis",,"61 nM, room temperature, added: 50 nM labelled protein",higher = more binding,normalised MST signal,-0.0766
Nc1nnc(-c2ccccc2O)cc1N1CCN(Cc2ccc(OCCOCCNc3cccc4c3C(=O)N(C3CCC(=O)NC3=O)C4=O)c(F)c2)CC1 (centres unmarked),SMARCA2,immunohistochemistry,"mouse, NCI-H2126 xenograft, tumour",dose not given,baseline: vehicle,reduction in positive cells,46%
CN(CCCCCCNC(=O)CNc1cccc2c1C(=O)N(C1CCC(=O)NC1=O)C2=O)Cc1cn(Cc2ccc(C(=O)NO)cc2)c2ccccc12.O=C(O)C(F)(F)F (centres unmarked),"Protein deacetylase HDAC6 (HDAC6, Homo sapiens, UniProt Q9UBN7)","degrader, western blot",MM1.S,"5 µM, 24 h",,degradation,99%
Cc1cccc2c1ccc1cc(C(C)C)ccc12,Aryl hydrocarbon receptor,"reporter gene, agonist, luciferase reporter",ZF-4,1.524 µM,baseline: vehicle control,fold change,0.98
CC[C@H](C)[C@H](NC(=O)[C@H](CCCNC(=N)N)NC(=O)[C@H](Cc1c[nH]cn1)NC(=O)[C@H](CCCNC(=N)N)NC(=O)[C@H](CC(=O)O)NC(=O)[C@H](CC(=O)O)NC(=O)[C@@H](NC(=O)[C@H](CC(=O)O)NC(=O)[C@@H]1CCCN1C(=O)[C@@H](N)CC(C)C)[C@@H](C)O)C(=O)N[C@@H](CCC(=O)O)C(=O)N[C@@H](CCC(=O)O)C(=O)N[C@@H](CCCCN)C(=O)N[C@@H](CCCNC(=N)N)C(=O)N[C@@H](CCCCN)C(=O)N[C@@H](CCCNC(=N)N)C(=O)N[C@H](C(=O)N[C@@H](Cc1ccc(O)cc1)C(=O)N[C@@H](CCC(=O)O)C(=O)N[C@H](C(=O)N[C@@H](Cc1ccccc1)C(=O)N[C@@H](CCCCN)C(=O)N[C@@H](CO)C(=O)N[C@@H](C)C(=O)N[C@@H](CCSC)C(=O)N[C@@H](CCCCN)C(=O)N[C@@H](CCCCN)C(=O)N[C@@H](CO)C(=O)N1CCC[C@H]1C(=O)N[C@@H](Cc1ccccc1)C(=O)N[C@@H](CC(N)=O)C(=O)NCC(=O)N1CCC[C@H]1C(=O)O)[C@@H](C)O)[C@@H](C)O,"NF-kappa-B inhibitor alpha (Homo sapiens, UniProt P25963)","binding, ITC",,"pH 7.5, 293 K, 50 mM NaCl",,-TΔS,-1.1 ± 0.01 kcal/mol
c1ccc2c(c1)-c1cccc3c1c-2cc1ccccc13,Aryl hydrocarbon receptor,"reporter gene, agonist, luciferase reporter",ZF-4,4.572 µM,baseline: vehicle control,fold change,2.63
CN1C(=O)CCC(N2C(=O)c3cccc(N)c3C2=O)C1=O (centres unmarked),"Sal-like protein 4 (SALL4, Homo sapiens, UniProt Q9UJQ4)","degrader, immunofluorescence",C33,,,DC50,inactive
CC[C@@H]1[C@H](F)C(=O)N[C@@H]1COc1nccc2cc(C(N)=O)c(OC)cc12,AURKA,"ATP probe binding, KiNativ profiling, measured: Lys1 probe site",THP-1 cell lysate,0.2 mM,,inhibition,20.9%
C=CC(=O)N1CCC(COCC(=O)N2CCN(c3nc(-c4cnc(N)nc4C(F)F)nc(N4CCOC[C@@H]4C)n3)CC2)CC1,"Testis-specific serine/threonine-protein kinase 3 (TSSK3, Homo sapiens, UniProt Q96PN8)",KINOMEscan,,1 µM,,remaining binding,100%
O=C(NO)c1ccc(CN2CCCCc3ccccc32)c(F)c1,"Muscarinic acetylcholine receptor M1 (CHRM1, Homo sapiens, UniProt P11229)","radioligand binding, radioligand displacement",,10 µM,,inhibition,13.7%
O=C1C=CC(=O)c2c1ccc1ccccc21,Aryl hydrocarbon receptor,"reporter gene, agonist, luciferase reporter",ZF-4,4.572 µM,baseline: vehicle control,fold change,3
CC(=O)OCc1nn(C)c2nc(N)[nH]c(=O)c2c1=O,"Dihydropteroate synthase (folP, Bacteria, UniProt P0AC13)",CETSA HiBiT,"Escherichia coli, whole cells",concentration not given,baseline: DMSO,melting temperature shift,7.41 °C
Clc1ccc2[nH]ccc2c1,"5-hydroxytryptamine receptor 3A (Htr3a, Mus musculus, UniProt P23979)","positive allosteric modulator, two-electrode voltage clamp",Xenopus oocytes,"100 µM, pH 7.4, holding -60 mV, added: 5-HT 1 µM",baseline: 5-HT 1 µM alone,peak current,211 ± 55.4%
CC(=C/C(=O)O)/C=C/C=C(\C)C1C=C2C(C)(C)CCCC2(C)O1 (centres unmarked),"Rhodopsin (RHO, Homo sapiens, UniProt P08100, E181K)","ER retention, immunostaining co-localization, measured: opsin with calnexin",COS-7 transfected E181K,30.00 µM,,Pearson correlation coefficient,0.43
O=c1nc(SCc2cc(F)cc(C(F)(F)F)c2)nc(SCc2ccc3nc(Cl)ccc3c2)[nH]1,"DNA topoisomerase 2-alpha (TOP2A, Homo sapiens, UniProt P11388)",DNA relaxation,,"15.6 µM, replicate 2",,relaxed DNA,98.9%
CCCCNc1c(C(=O)OCC)c(C)nc2c1cnn2CC.Cl,"GABA-A receptor; alpha-1/beta-2/gamma-2 (Rattus norvegicus, UniProt P18508+P62813+P63138)","chloride current, agonist, whole-cell patch clamp",HEK293 expressing GABAA,30 s,baseline: maximum,maximal response,49%
C[C@H](CCC(C)(C)O)[C@H]1CC[C@H]2[C@@H]3CC=C4C[C@@](C)(O)CC[C@]4(C)[C@H]3CC[C@]12C,"Glutamate NMDA receptor; GRIN1/GRIN2B (GRIN1/GRIN2B, Homo sapiens, UniProt Q05586+Q13224, L650A)","positive allosteric modulator, two-electrode voltage clamp",Xenopus oocytes expressing GluN2B-L650A,"10 µM, 0.02% cremophor, added: 100 µM glutamate and glycine",baseline: without compound,current response,103 ± 2.8%
N#Cc1ccc2[nH]cc(CCCCN3CCN(c4ccc5oc(C(N)=O)cc5c4)CC3)c2c1,"Sodium-dependent serotonin transporter (SLC6A4, Homo sapiens, UniProt P31645, S438T)","[3H]5-HT uptake, inhibitor",COS-7,,,Hill coefficient,0.98 ± 0.11
CC1CCCN1c1nccc(-c2cnn3ncccc23)n1 (centres unmarked),"Tyrosine-protein kinase ABL1 (ABL1, Homo sapiens, UniProt P00519, Q252H)",KINOMEscan,,1 µM,,remaining binding,100%
Nc1ccc2ccc3cccc4ccc1c2c34,Aryl hydrocarbon receptor,"reporter gene, agonist, luciferase reporter",ZF-4,1.524 µM,baseline: vehicle control,fold change,1.05

# A few entries again:
Structure (SMILES),target,test,test system,conditions,scale,measurement,result
O=C(COP(=O)(O)O)[C@@H](O)[C@H](O)[C@H](O)COP(=O)(O)O,"Ribose-phosphate pyrophosphokinase 1 (PRPS1, Homo sapiens, UniProt P60891)",thermal proteome profiling,HepG2 cell lysate,"concentration not given, 57 over 37 °C",baseline: compound over control,thermal stability ratio,2.78 and 1.65 and 2.95
Nc1ncnc2c1ncn2[C@@H]1O[C@H](COP(=O)(O)OP(=O)(O)O)[C@@H](O)[C@H]1O,"GUK1 (Homo sapiens, UniProt Q16774)",ITC,,molar ratio 0.297,,ΔH,-2.96 kcal/mol
